# Published values from different studies.
# Protocols differ between the studies behind these lines. Numbers after ± are the reported error.
# UniProt P21554, sequence (whole entry, unmodified, looked up): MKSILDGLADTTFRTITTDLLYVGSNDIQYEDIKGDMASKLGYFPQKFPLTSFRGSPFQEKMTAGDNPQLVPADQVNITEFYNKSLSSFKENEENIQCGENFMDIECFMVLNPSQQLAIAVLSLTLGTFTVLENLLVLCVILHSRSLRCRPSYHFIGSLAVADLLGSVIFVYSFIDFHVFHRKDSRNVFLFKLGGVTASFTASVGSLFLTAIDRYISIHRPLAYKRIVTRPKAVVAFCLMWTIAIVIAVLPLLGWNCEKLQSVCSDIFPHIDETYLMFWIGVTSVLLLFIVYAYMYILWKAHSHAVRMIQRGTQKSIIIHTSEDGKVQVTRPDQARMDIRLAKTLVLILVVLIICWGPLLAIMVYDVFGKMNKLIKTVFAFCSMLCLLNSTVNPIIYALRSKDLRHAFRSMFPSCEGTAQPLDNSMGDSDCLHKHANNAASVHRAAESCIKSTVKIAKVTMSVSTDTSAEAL
# UniProt P07550, sequence (whole entry, looked up): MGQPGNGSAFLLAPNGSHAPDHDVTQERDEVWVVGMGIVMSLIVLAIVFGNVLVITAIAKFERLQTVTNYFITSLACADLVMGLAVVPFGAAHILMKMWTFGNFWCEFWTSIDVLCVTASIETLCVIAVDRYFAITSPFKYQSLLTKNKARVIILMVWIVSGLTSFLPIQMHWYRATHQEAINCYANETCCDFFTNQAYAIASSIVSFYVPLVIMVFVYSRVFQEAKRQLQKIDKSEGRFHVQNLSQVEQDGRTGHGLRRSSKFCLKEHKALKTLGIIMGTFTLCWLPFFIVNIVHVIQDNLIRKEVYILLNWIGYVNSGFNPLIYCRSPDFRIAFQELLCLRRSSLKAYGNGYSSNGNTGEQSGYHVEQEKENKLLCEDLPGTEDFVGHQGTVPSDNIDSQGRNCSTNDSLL
# UniProt P56817, sequence (whole entry, looked up): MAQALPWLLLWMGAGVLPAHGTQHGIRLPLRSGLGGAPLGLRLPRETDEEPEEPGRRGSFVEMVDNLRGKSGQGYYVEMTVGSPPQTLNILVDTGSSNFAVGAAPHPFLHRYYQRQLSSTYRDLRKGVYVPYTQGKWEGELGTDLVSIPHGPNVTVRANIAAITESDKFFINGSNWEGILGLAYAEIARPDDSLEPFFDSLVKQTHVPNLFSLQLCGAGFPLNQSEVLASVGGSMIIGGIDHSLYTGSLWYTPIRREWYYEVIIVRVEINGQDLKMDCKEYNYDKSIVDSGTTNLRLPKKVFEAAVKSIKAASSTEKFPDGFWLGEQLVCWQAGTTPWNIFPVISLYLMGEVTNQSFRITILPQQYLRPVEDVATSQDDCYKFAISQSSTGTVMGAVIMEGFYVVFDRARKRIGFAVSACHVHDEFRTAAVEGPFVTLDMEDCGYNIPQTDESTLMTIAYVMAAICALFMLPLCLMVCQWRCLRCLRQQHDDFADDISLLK
# UniProt Q9UKP6, sequence (whole entry, unmodified, looked up): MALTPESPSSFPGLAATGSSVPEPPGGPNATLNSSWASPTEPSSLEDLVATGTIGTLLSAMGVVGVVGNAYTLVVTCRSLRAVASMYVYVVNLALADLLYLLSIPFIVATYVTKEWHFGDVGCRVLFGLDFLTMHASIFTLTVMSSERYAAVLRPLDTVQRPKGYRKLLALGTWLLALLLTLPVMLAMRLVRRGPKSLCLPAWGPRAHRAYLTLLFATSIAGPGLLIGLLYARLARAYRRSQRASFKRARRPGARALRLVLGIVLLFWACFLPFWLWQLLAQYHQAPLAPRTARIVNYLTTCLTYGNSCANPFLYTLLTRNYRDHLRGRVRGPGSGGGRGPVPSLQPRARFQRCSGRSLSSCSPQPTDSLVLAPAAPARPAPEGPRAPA
# UniProt Q01959, sequence (whole entry, unmodified, looked up): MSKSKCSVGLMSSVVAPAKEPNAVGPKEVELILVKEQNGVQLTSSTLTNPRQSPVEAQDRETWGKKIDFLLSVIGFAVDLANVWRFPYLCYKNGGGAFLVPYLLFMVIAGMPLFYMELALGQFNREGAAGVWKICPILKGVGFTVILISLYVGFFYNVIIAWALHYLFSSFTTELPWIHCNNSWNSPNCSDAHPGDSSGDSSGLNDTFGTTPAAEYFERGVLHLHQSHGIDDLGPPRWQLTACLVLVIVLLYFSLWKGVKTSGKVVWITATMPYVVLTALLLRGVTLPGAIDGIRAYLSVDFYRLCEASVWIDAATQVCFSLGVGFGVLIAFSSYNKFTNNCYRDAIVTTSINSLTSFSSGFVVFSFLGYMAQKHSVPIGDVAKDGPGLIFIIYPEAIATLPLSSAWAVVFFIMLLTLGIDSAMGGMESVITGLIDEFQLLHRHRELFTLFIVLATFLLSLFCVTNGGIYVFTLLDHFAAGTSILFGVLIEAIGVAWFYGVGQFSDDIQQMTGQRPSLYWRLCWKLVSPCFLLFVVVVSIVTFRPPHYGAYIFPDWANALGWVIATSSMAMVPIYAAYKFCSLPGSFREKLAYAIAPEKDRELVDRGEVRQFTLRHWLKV
# UniProt P41143, sequence (whole entry, unmodified, looked up): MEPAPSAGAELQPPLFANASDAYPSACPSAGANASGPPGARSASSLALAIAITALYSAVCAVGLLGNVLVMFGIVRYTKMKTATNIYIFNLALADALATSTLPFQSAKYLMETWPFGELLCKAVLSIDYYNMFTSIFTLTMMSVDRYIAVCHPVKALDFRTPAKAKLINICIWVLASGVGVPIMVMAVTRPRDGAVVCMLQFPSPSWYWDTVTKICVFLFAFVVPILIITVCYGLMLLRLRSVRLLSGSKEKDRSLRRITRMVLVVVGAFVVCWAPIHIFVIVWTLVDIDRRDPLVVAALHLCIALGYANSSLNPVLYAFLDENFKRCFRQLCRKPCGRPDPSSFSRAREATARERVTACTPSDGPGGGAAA
# UniProt P51957, sequence (whole entry, looked up): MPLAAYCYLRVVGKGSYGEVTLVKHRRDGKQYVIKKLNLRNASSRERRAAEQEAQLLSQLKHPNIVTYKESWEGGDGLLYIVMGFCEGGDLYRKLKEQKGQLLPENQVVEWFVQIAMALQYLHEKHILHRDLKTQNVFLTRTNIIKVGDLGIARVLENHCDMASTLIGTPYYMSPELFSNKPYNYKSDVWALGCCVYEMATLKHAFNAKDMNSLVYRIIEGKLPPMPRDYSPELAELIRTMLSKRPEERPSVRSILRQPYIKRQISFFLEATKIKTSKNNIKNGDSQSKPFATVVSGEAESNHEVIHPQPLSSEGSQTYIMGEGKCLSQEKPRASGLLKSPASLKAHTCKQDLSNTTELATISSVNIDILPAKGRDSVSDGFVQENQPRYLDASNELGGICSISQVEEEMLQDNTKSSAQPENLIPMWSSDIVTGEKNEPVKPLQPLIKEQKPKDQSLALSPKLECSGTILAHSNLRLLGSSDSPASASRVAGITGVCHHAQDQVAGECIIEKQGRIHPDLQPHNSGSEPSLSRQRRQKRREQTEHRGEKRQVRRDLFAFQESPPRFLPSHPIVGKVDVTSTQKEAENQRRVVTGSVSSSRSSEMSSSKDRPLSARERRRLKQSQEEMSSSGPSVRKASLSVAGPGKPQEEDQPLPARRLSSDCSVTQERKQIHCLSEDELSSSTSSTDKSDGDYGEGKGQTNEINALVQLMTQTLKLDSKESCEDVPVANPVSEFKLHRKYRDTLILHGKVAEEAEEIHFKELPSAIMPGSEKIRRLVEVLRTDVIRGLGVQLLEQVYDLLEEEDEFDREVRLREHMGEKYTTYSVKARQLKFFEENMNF
# UniProt P07949, sequence (whole entry, unmodified, looked up): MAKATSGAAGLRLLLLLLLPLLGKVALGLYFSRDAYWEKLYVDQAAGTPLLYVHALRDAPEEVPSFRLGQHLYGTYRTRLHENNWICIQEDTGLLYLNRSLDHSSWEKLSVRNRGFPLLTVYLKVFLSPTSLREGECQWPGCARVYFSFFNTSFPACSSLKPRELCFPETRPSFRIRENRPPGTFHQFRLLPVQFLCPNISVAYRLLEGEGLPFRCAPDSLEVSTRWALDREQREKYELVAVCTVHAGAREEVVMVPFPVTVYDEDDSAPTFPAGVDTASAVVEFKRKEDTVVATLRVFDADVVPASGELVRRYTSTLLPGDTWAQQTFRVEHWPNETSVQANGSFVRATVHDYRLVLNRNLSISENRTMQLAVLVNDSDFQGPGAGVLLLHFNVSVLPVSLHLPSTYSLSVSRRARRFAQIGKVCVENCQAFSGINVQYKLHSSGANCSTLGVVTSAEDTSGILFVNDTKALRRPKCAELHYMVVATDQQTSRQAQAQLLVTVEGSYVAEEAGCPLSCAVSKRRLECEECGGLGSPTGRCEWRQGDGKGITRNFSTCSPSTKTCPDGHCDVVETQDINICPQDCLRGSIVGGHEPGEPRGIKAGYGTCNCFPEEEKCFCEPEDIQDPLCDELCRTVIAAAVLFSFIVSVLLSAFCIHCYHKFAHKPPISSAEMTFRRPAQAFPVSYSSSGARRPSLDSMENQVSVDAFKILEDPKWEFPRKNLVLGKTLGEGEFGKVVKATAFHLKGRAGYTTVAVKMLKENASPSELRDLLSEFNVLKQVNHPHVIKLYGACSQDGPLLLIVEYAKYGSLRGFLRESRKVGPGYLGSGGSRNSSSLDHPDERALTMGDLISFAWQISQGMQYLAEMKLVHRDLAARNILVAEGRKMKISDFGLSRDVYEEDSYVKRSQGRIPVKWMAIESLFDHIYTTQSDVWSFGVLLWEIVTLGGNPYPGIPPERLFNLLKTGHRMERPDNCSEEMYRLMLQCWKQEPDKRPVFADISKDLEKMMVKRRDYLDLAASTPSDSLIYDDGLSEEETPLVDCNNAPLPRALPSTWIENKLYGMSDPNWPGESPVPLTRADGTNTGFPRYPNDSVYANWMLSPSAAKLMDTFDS
SMILES,tested on,assay,test system,conditions,scale,quantity,result
CCN(CC)C(=O)[C@@H]1C=C2c3cccc4c3c(cn4C(=O)c3ccco3)C[C@H]2N(C)C1,"ADRB2 (Homo sapiens, UniProt P07550)","ligand displacement, radioligand",,,,Ki,> 10000 nM
CC(C)[C@H](NC(=O)[C@@H]1CSSC(C)(C)[C@H](NC(=O)[C@@H](N)CC(=O)O)C(=O)N[C@@H](Cc2ccccc2)C(=O)N[C@@H](Cc2c[nH]c3ccccc23)C(=O)N[C@@H](CCCCN)C(=O)N[C@@H](Cc2ccc(O)cc2)C(=O)N1)C(=O)O,"UTS2R (Homo sapiens, UniProt Q9UKP6, M134A)","IP1 accumulation, agonist, HTRF",HEK293T,"1 h, 37 °C, M134A mutant, 3.36",,EC50,0.00398 µM
COc1ccccc1-c1n[nH]c2nc(NC3CCN(C(=O)Cc4ccc(F)cc4F)CC3)ncc12,,"bead binding, competition bead pull-down, measured: LINJ.24.2330",Leishmania donovani axenic amastigote extract,10 µM,reference: vehicle,relative abundance,0.89
O=C1NC2(CC2)COc2ncc(F)cc2[C@H]2COCCN2c2ccn3ncc1c3n2,,,"Sprague-Dawley rat, male, adrenals","oral, 5 mg/kg/day, 4 weeks dosing, end of recovery",,organ-to-brain weight ratio,2.78 ± 0.15%
Cc1ccc2c(C(C[N+](=O)[O-])c3cccs3)c(-c3ccccc3)[nH]c2c1 (stereo not shown),"CNR1 (Homo sapiens, UniProt P21554, I245A)","β-arrestin recruitment, agonist, luciferase",,,,EC50,0.38 µM
CC(C)CC(C(=O)N1CC2(CC1C#N)C(=O)Nc1ccccc12)N(C)C(=O)c1cc2c(F)cc(F)c(F)c2[nH]1 (stereo not shown),"Beta-secretase 1 (BACE1, Homo sapiens, UniProt P56817)",,,,,IC50,> 100 µM
CCC[C@H](C(=O)c1ccccc1)N1CCCC1,"SLC6A3 (Homo sapiens, UniProt Q01959, S149A/S429G)","transporter uptake, inhibitor, radiometric",,,,Ki,579 nM
CC(C)(C)C(=O)OCOP(=O)(OCOC(=O)C(C)(C)C)C1CCCN(O)C1=O (stereo not shown),Malme-3M,,,,,CC50,> 100 µM
O=[N+]([O-])CC(c1ccco1)c1c(-c2ccccc2)[nH]c2ccccc12 (stereo not shown),"CNR1 (Homo sapiens, UniProt P21554, L252A)","G protein activation, agonist, BRET",,,,EC50,> 1000 µM
CS(C)(=O)=Nc1ccc(-c2ccc(-c3nc4cc(O[C@@H]5CO[C@H]6[C@@H]5OC[C@H]6O)[nH]c4cc3F)cc2)cc1,"RET (Homo sapiens, UniProt P07949, V804M)","enzyme activity, inhibitor",,10 µM,,inhibition,-14%
C[C@]12CC[C@H](OC(=O)C3CC3)[C@@](C)(COC(=O)C3CC3)C1C[C@H](O)[C@@]1(C)Oc3cc(-c4cccnc4)oc(=O)c3[C@H](O)C21 (stereo partly shown),Halyomorpha halys,radioligand competition binding,,"Nan-Iav, added: [3H]-afidopyropen",,Ki,0.00997 nM
O=C(O)CCn1c(=O)oc2cc(Cl)c(Cl)cc21,"OPRM1 (Homo sapiens, UniProt P35372)",agonist,,,,EC50,> 100 µM
CCN(CC)C(=O)c1ccc(C(c2cccc(O)c2)N2CC(C)N(Cc3ccccc3)CC2C)cc1 (stereo not shown),"OPRD1 (Homo sapiens, UniProt P41143, E323K)",,,,,Ki,0.32 ± 0.09 nM
CN(C)[C@H]1C[C@@]23CC[C@@]4(O2)C(=CC[C@]2(C)[C@@H](c5ccc6ccncc6c5)CC[C@H]24)C=C3[C@@H](O)[C@@H]1O,"NEK4 (Homo sapiens, UniProt P51957)","ATP probe labelling, inhibitor, KiNativ profiling",,0.1 µM,,inhibition,4.9%
COc1ccccc1C(C[N+](=O)[O-])c1c(-c2ccccc2)[nH]c2ccccc12 (stereo not shown),"CNR1 (Homo sapiens, UniProt P21554, I245M)","G protein activation, agonist, BRET",,,,EC50,0.59 µM
CCCCCn1cc(C(=O)c2cccc3c2CC(C)(C)C3)c2ccccc21,"CNR1 (Homo sapiens, UniProt P21554, F177A)","cAMP, agonist, BRET",,,,EC50,0.0182 µM
